Published values from different studies.
A part holds a random share of what one study measured.

Set 1
Target: Ras GTPase-activating protein-binding protein 1, C-terminal RGG region (G3BP1, Homo sapiens, UniProt Q13283)
UniProt Q13283, sequence (whole entry, looked up): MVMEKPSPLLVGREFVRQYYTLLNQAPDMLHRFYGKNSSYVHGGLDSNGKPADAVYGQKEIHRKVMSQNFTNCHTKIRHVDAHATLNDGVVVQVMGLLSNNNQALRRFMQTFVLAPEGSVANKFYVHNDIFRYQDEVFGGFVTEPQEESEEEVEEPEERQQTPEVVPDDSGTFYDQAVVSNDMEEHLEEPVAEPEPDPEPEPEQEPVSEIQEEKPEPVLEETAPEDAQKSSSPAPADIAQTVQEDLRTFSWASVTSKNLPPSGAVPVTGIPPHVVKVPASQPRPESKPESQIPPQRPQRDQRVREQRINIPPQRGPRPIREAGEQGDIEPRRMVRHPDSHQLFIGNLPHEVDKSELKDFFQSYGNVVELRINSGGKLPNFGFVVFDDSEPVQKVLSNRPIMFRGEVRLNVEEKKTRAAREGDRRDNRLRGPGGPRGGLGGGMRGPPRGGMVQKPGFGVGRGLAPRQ
Method: RNA Bind-n-Seq
Form: RNA
Matrix: in vitro
Tested at: 1 µM
Setting: whole 134-nt RNA, ends assumed
With: 150 mM KCl
Reference: input library
Reading: higher = stronger binding
`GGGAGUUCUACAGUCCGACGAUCUCCUCAAGUCCUGUGCUACACAUCGUAUGUACCGAAUCGGUGGAAAGGUGGAAAGUAUUAUGUUACGCCGUUCGGAUCUGCACUUCCAGCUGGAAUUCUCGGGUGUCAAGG` has a log2 enrichment of -0.897.
`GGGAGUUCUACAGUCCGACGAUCUCCUGUGCUACACAUCGUAUGUACCGAAUCGGGAAAAAGGGGAAAAAGGGGAAAAAGGGGAAAGUAUUAUGUUACGCCGUUCGGAUCUGCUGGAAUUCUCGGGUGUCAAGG` gave a log2 enrichment of -0.052.
`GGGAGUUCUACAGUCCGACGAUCCCUCAAGUCCUGUGCUACACAUCGUAUGUACCGAAUCGGGCGGCGGGGCGGGGAAAGUAUUAUGUUACGCCGUUCGGAUCUGCACUUCCAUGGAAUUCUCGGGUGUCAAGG` has a log2 enrichment of 0.813.
With `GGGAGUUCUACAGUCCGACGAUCCACAGACAACACGCACCCACACAGACACAGAGGGAAGGGGUUGGGAUCGGGACAGGGUGCACAGCAGGGCGGGGUAGGACCCCAGCCCCUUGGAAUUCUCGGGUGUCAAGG` the log2 enrichment was -0.594.
`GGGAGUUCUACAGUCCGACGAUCGCAGGAAGUAAAAACAAAUGGAAAUGCUUCGGAUACUGGCAGGGGUGGGGGUUGCUAAGGAAAGGGUGGGAUGGGAGUGGGUAAAGAGUUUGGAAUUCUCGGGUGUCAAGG` has a log2 enrichment of 2.09.
`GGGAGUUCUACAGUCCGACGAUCUCCUGUGCUACACAUCGUAUGUACCGAAUCGGAAAAAGGGGAAAAAGGGGAAAAAGGGGAAAGUAUUAUGUUACGCCGUUCGGAUCUGCAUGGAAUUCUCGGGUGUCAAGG` gave a log2 enrichment of -0.514.
`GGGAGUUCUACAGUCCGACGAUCUGUAGAAAAGGCACUGGACUAACACUUGGCUGUAUCUUGUAACAGGCAUGUUAUGUUACCCAGAGAACUUUCCAAACAAGUACCUAAAACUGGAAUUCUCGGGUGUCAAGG` has a log2 enrichment of -0.527.
The log2 enrichment of `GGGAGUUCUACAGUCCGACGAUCCCUGUGCUACACAUCGUAUGUACCGAAUCGGGGCCCCCCCGGCCCCCCCGGCCCCCCCGGGAAAGUAUUAUGUUACGCCGUUCGGAUCUGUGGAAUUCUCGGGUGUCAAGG` is reported as -1.49.
With `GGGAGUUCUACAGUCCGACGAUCAAGUCCUGUGCUACACAUCGUAUGUACCGAAUCGGGAAAAAGGGAAAAAGGGUGGGAAAGUAUUAUGUUACGCCGUUCGGAUCUGCACUUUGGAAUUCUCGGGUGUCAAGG` the log2 enrichment was 1.52.
The log2 enrichment of `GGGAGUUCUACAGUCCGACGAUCCUCAAGUCCUGUGCUACACAUCGUAUGUACCGAAUCGGAGGAAAAAAAGGAGGAAAGUAUUAUGUUACGCCGUUCGGAUCUGCACUUCCAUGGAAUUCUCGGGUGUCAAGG` is reported as -1.31.

Set 2
Target: Hepatocyte nuclear factor 3-beta, forkhead domain (FOXA2, Homo sapiens, UniProt Q9Y261, residues 142-269)
Method: protein-binding microarray
Form: double-stranded DNA, one strand shown
Matrix: in vitro
Tested at: not given
Setting: k-mer, scored over probes, only values ≥0.25
Reading: higher = stronger binding
Residues (chain): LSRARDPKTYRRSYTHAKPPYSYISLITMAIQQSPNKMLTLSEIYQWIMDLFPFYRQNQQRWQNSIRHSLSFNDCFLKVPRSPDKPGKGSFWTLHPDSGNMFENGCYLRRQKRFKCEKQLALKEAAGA
For `ACAATGAT`, the E-score was 0.278.
`GAGATCAA` has an E-score of 0.287.
The E-score of `AACAATAT` is reported as 0.398.
The E-score of `ATGTTTGA` is reported as 0.29.
For `ATACCCAT`, the E-score was 0.26.
`CGTAAATA` has an E-score of 0.299.
`CTTATTGA` has an E-score of 0.304.
With `ACATATAA` the E-score was 0.424.
`AATTATGT` has an E-score of 0.321.
`ACTAAATA` has an E-score of 0.354.
With `TATTAATA` the E-score was 0.256.
`CTGTATAC` gave an E-score of 0.379.
The E-score of `TAGAATAA` is reported as 0.303.
`ATAAAAAC` has an E-score of 0.254.
The E-score of `AGTCATGA` is reported as 0.271.
For `CAACTATA`, the E-score was 0.299.
The E-score of `CACATTAC` is reported as 0.316.
With `CTTTGTAA` the E-score was 0.315.
`ATGGAATA` has an E-score of 0.325.
For `GGTCTATA`, the E-score was 0.272.
`GTTTACCA` has an E-score of 0.275.
With `AGTATTAT` the E-score was 0.26.
`CGGATATA` gave an E-score of 0.285.
The E-score of `ATGCATTA` is reported as 0.283.
`ATATATTA` gave an E-score of 0.325.

Set 3
Target: RNA binding protein fox-1 homolog 2, RRM domain, GST-SBP tag (RBFOX2, Homo sapiens, UniProt O43251-10, residues 100-194)
Method: RNA Bind-n-Seq
Form: RNA
Matrix: in vitro
Tested at: 365 nM
Setting: natural RNA segment, single round, ends assumed
Reference: no-protein control
Reading: higher = stronger binding
Target sequence (chain): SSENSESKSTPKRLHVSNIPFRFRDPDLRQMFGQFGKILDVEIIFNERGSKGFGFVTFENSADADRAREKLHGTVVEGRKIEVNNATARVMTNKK
`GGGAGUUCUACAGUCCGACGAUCAGCCUUGUCUUCUUAGCUGUCACCUGCCGAGGCUUCUGGGCCACUCAGGCCAGUGCACCCCUGGGCAGAGCCCCUUAAAGCUGCUGUCACUAGAUGCCCAUGGUCCAGGGUGGAAUUCUCGGGUGCCAA` — result for “RBNS enrichment (R)”: 0.271.
`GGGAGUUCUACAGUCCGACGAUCUGAGCAUGUUUGUUUUGUCUGCUUUCUAUACAGAGCUCAGAUUUGUCUAAUGAUUUAAAUGUAACCCAAGACUUUAAGUGUGGGUUACUUAAUGUGUUCCUGAAGAGGUUUGGAAUUCUCGGGUGCCAA` — result for “RBNS enrichment (R)”: 3.36.
For `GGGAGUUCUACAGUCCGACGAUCGGCCAUUUGAGUCUUUGUAACCUAGGAAAGACAAAGGUCUGAUUCAGAUUGCAUGGGGGAUUUUUAACAUAUUUGAAACUCAGGGGGAACAUGAUUAAGAACACAAACUGUGGAAUUCUCGGGUGCCAA`, “RBNS enrichment (R)” read 5.98.
Under “RBNS enrichment (R)”, `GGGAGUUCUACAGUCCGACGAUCCAUCAACUCUGGCUCUUGUAGGGGCUGGAGCAGCUAGUUCAUGCUGCCUGUGGAACUCACUUCCUGGACUGAUGAGCACGGUCAGCCUCUGUCCCCACUGCAGGUGCUGCUGGAAUUCUCGGGUGCCAA` is recorded as 0.345.
`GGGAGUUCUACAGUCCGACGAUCUGGCUUUUAACAUUAAUGCAAAUCAUGCAGAAUUUGAGUUAUAAAUUUAAAUAUAAAUUGACCAUUGAUGAUAUCCAGUUUUUCAUUUUUUACCUGUAUUGCAUUUUCCCUGGAAUUCUCGGGUGCCAA` — result for “RBNS enrichment (R)”: 0.863.
Under “RBNS enrichment (R)”, `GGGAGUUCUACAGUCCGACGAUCUGAGCUCUCAGUUGUACCUCCAACCCCUUUCUCCGGGACCAGCUAUGUGGUCCAGCUGUUUUAAUUGAGUGCUUUUAAAUGAAACCUGACUGCCAUCUUUCUUUUGUGACUGGAAUUCUCGGGUGCCAA` is recorded as 0.668.
Under “RBNS enrichment (R)”, `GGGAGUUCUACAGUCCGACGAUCGAGCAUGGCUCACAGGCCUUGUGUCUGGGUGAAGGGAACCCAGGGUCAGGCUGCACUUCUGUUUCUGUCUUUUGCUCAACAGCGGGGUGUGCACUCGUGGCUGCACAGAUUGGAAUUCUCGGGUGCCAA` is recorded as 2.36.
`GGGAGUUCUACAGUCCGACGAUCGUUCUUCACCUCUAUCCAAAGGACUUGAUUUGCAUGGUAUUGGAUAAAUCAUUUCAGUAUCCUCUCCAUCACAUGCCUGGCCCUUGCUCCCUUCAGCGCUAGACCAUCAAUGGAAUUCUCGGGUGCCAA`: “RBNS enrichment (R)” 1.6.
For `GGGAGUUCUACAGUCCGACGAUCUCUCUCCUAGCCGCUGCUUUACAAACCCAGAGGAUGAGAGCCCAAGGUCGAGACUGGAGAAGCACACUUCCUUCUUGGGCAGCUUCCCACCAUGGCACAGGUGCUAUGGCUGGAAUUCUCGGGUGCCAA`, “RBNS enrichment (R)” read 0.307.

Set 4
Target: RING finger protein unkempt homolog, zinc fingers 1-6, GST-SBP tag (UNK, Homo sapiens, UniProt Q9C0B0, residues 30-357)
UniProt Q9C0B0, sequence (30-357, looked up): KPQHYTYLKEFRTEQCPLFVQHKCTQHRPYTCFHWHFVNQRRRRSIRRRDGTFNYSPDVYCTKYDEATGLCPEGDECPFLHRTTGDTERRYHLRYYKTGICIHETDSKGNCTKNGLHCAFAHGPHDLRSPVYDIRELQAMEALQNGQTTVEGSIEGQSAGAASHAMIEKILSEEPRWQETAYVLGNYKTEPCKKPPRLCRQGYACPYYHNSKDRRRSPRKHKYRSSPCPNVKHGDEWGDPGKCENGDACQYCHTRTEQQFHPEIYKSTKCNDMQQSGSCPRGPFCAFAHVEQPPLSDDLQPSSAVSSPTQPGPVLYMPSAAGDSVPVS
Method: RNA Bind-n-Seq
Form: RNA
Matrix: in vitro
Tested at: not given
Setting: RNA with constant flanks, human and mouse sites, ends assumed
Reference: input RNA pool
Reading: higher = stronger binding
For `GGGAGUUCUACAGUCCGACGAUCUAGAUACCCCAGCGAGUUCUGACUCUGAACUAUAACUUUUUUUUUUUUUAAUGCAAAGACACUAGUCUGAUAAUAUAUACUGUAUUCCCGGAGACAUUUGUGUUACUUACCCUUGGGGGCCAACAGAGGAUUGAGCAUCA`, the bound/input enrichment was 10.8 ratio.
`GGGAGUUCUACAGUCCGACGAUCUGGCCCCAGCCUUCCUCUGAGGGCCCAAGUCUCACCCAGCCUGGGCUGGACAAAGAGGCAGCUGUAGCAGUGGUGACAGAAGUGGAGUCUGCUGUACAGCAGGAAGUGGCCUCCCCUGGGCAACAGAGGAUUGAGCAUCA` has a bound/input enrichment of 0.111 ratio.
For `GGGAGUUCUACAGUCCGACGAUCCCUACACCAGAACAAGAGGAAAAAGCACUAUUGUCAUCACCUGAAGGAGAAGAAAAAGUAUACAAUGCAACAUCAGAUGCUGACCUGAAAGAACAUAUGGUUGGAAUCAUAUUCAGCAGGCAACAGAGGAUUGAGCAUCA`, the bound/input enrichment was 0.144 ratio.
For `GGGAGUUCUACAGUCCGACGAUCACUUCCGGGAGGGGGCUUGGGUCCCUGGUGUGUGUGCUACGGGGUGCAGACUGUGUUUAAAAUAGCAGGAACGCCAUGUCCCGGGGUUCCAGCGCCGGUUUUGACCGUCACAUUACUAUCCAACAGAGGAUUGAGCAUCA`, the bound/input enrichment was 0.112 ratio.
For `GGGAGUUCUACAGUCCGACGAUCCGAGAUGAUACAAUAUACGAGGAUGAAGAUGUAAAAGAAGCCAUAAGAAGACUUCCUGAGAACCUUUAUAAUGACAGGAUGUUUCGCAUUAAGAGGGCACUGGACCUGAACUUGAAGCAUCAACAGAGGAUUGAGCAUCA`, the bound/input enrichment was 0.204 ratio.
With `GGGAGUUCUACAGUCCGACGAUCGCUGAACUUGAUACACUGAAUGAAGACUCAUACAAAGACAGCACCCUCAUCAUGCAGUUGCUUAGAGACAACCUAACACUUUGGACAUCAGACAGUGCAGGAGAAGAAUGUGAUGCGGCACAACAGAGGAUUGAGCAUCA` the bound/input enrichment was 0.272 ratio.
The bound/input enrichment of `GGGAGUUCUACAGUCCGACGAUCGCUGGGGAGGAGGCAGCCCUGGGAGCCGAGCUCUGUGAGGAGACCCCUGUGAAUGACAACUCAUCCAUCGUGGUGCGCAUCGCGCCCGAGGAGCGGCAGAAAUACGAGGAGGAGAUCCGCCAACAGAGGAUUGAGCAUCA` is reported as 0.287 ratio.
`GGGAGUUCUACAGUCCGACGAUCAUUGAUGAGCUGAAGAAAGAGAUGGCUAUGAACUUUGGAGACUGGCAUCUUUUUAGAAGCAUGGUCUUAGAAAUGAGAAGUGUGGAAAACCAGGUGGUCCCCGAAGACCCACGUUUUCUCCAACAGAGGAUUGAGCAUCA` has a bound/input enrichment of 0.187 ratio.

Some of these lines once more (set 4):
For `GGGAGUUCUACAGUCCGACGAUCCGAGAUGAUACAAUAUACGAGGAUGAAGAUGUAAAAGAAGCCAUAAGAAGACUUCCUGAGAACCUUUAUAAUGACAGGAUGUUUCGCAUUAAGAGGGCACUGGACCUGAACUUGAAGCAUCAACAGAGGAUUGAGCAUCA`, the bound/input enrichment was 0.204 ratio.
`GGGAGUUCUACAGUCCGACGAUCUGGCCCCAGCCUUCCUCUGAGGGCCCAAGUCUCACCCAGCCUGGGCUGGACAAAGAGGCAGCUGUAGCAGUGGUGACAGAAGUGGAGUCUGCUGUACAGCAGGAAGUGGCCUCCCCUGGGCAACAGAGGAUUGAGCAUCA` has a bound/input enrichment of 0.111 ratio.
For `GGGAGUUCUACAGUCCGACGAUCCCUACACCAGAACAAGAGGAAAAAGCACUAUUGUCAUCACCUGAAGGAGAAGAAAAAGUAUACAAUGCAACAUCAGAUGCUGACCUGAAAGAACAUAUGGUUGGAAUCAUAUUCAGCAGGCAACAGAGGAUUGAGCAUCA`, the bound/input enrichment was 0.144 ratio.
For `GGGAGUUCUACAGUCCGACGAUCACUUCCGGGAGGGGGCUUGGGUCCCUGGUGUGUGUGCUACGGGGUGCAGACUGUGUUUAAAAUAGCAGGAACGCCAUGUCCCGGGGUUCCAGCGCCGGUUUUGACCGUCACAUUACUAUCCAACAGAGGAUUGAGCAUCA`, the bound/input enrichment was 0.112 ratio.
`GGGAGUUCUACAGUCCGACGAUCAUUGAUGAGCUGAAGAAAGAGAUGGCUAUGAACUUUGGAGACUGGCAUCUUUUUAGAAGCAUGGUCUUAGAAAUGAGAAGUGUGGAAAACCAGGUGGUCCCCGAAGACCCACGUUUUCUCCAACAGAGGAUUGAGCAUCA` has a bound/input enrichment of 0.187 ratio.
